# Measurements from different studies.
# Parts stem from different laboratories: compare values within a part only.

# Sample 1
# Target: Centromere-binding protein 1, full length, N-terminal tag (CBF1, Saccharomyces cerevisiae, UniProt P17106, residues 1-351)
# Sequence of UniProt P17106 (whole entry, looked up): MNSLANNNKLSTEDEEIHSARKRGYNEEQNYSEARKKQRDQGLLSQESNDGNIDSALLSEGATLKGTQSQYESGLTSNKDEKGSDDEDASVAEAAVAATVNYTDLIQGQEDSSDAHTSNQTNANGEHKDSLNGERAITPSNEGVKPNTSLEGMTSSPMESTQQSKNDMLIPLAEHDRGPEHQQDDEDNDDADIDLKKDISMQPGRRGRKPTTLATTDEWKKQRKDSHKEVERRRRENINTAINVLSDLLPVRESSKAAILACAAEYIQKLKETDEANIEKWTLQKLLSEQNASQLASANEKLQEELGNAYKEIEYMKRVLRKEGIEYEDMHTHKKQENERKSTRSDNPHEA
# Method: protein-binding microarray
# Molecule type: double-stranded DNA, one strand shown
# Matrix: in vitro
# Concentration: 0.8 µM
# Notes: whole 60-bp probe, no competitor
# Direction: higher = stronger binding
# Constant ends, left off below: … GTCTTGATTCGCTTGACGCTGCTG
Oligonucleotide,fluorescence intensity
CTATTGAAAGAATCTCACCTGGAGAATGGGTGTTTC,557 a.u.
GAAACGTTAATGTCTCATGTGACTGAGCTGCAGTAG,1910 a.u.
CCTAACTACTATAGTGACTTTGAATAGCTTCGTACA,516 a.u.
GAATTTTCCAAAACAAGCGTGTCATGTGAGCTTTAG,3420 a.u.
GAATAAAGCGACAGTTCCGTGACGGTTACTATTTAG,520 a.u.
GAATTGACAGCACATGTGATTTATAGTTCTCCTTAG,3080 a.u.
GAACTACTTTCAGATGCGCTGATGGGCGTGCTTTAG,531 a.u.
GAAAGGTTCTATCCCCATGTGCCTCGTCATCGGTAG,621 a.u.
CTATACAAATTCCCTGATGCTAACTATTTGTTATTC,504 a.u.
GAATATCCATAGAATCATCACCGACCTGCGCAATAG,536 a.u.
GAAATATTTTGACGTGACGTGGTTTATTAGCAATAG,935 a.u.
GAACTTTACAATAGTCAGATCACGTTCTGTGGCTAG,2510 a.u.
CTAACGCAAGCAAGAGGTGACACATAAACATAGTTC,508 a.u.
CTACATCGCAATATGAAGATCACAGAAAAATTATTC,552 a.u.
GAAAAGGTATTGGGCCATGACGTCAGATCCTGGTAG,504 a.u.
GAACGAATAGTTCGTCAGGTGCCAGCACTGAGATAG,1620 a.u.
GAAAAATGATTTCGACAGGTGACCTTTAAGTTCTAG,1710 a.u.
CTAAGAAGAGAAAGTCACGGAATTGTCTACATATTC,552 a.u.
GAAGTTCTTTAACATGTGATGAGTTATATCTTGTAG,2870 a.u.

# Sample 2
# Target: Fragile X messenger ribonucleoprotein 1, C-terminal low-complexity region (Fmr1, Mus musculus, UniProt P35922)
# Method: RNA Bind-n-Seq
# Molecule type: RNA
# Matrix: in vitro
# Concentration: 200 nM
# Notes: whole 134-nt RNA, ends assumed
# Together with: 150 mM LiCl
# Relative to: input library
# Direction: higher = stronger binding
# Library: 7-deaza-guanosine replaces G
# Constant ends, left off below: GGGAGUUCUACAGUCCGACGAUC … UGGAAUUCUCGGGUGUCAAGG
Oligonucleotide,log2 enrichment
UGUGCUACACAUCGUAUGUACCGAAUCGUGUGUGUGUGUGUGUGUGUGUGUGUGUGUGUGUGUAAAGUAUUAUGUUACGCCGUUCGGAUC,0.217
UCCUCAAGUCCUGUGCUACACAUCGUAUGUACCGAAUCGGGCGGGCGGCGGAAAGUAUUAUGUUACGCCGUUCGGAUCUGCACUUCCAGC,0.918
UCAAGUCCUGUGCUACACAUCGUAUGUACCGAAUCGGUGGAAAGGAAAAAAAGGAAAGUAUUAUGUUACGCCGUUCGGAUCUGCACUUCC,-1.07
CAAGUCCUGUGCUACACAUCGUAUGUACCGAAUCGGGGUUUGGGUUUGGGUUUGGAAAGUAUUAUGUUACGCCGUUCGGAUCUGCACUUC,-0.996
CUGUGCUACACAUCGUAUGUACCGAAUCGGUUUUUUUGGGGUUUUUUUGGGUUUUUUUGGGGAAAGUAUUAUGUUACGCCGUUCGGAUCU,1.33
CACAGACAACACGCACCCACACAGACACAGAGGGAAGGGGUUGGGAUGGGGACAGGGUGCACAGCAGGGCGGGGUAGGACCCCAGCCACU,-0.436
ACCAUGCAGGUGGGCAUCUUUGGGAAGUGGGGCAAGGGGGGGAUAGGGAGGGGGGUAACACUUUGGGAACAGGUGGUCCCAGGUCGUUGC,1.07
GCAGGAAGGAAAAACAAAUGGAAAUGCUUCGGAUAGUGGCAGGGGUGGGGGUUGCUAAGGAAAGGGUGGGAUGGGAGUGGGUAAAGAGUU,1.56
CCUGUGCUACACAUCGUAUGUACCGAAUCGGGGCCCCCCGGGGCCCCCCGGGCCCCCCGGAAAGUAUUAUGUUACGCCGUUCGGAUCUGC,-2.33
AAGUCCUGUGCUACACAUCGUAUGUACCGAAUCGGGAAAAAAAGGGAGGGAAAGGGAAAGUAUUAUGUUACGCCGUUCGGAUCUGCACUU,-0.837
GUGCUACACAUCGUAUGUACCGAAUCGGGGAAAAAAAGGGGUUUUUUUGGGGUUUUUUUGGGGAAAGUAUUAUGUUACGCCGUUCGGAUC,-2.58

# Sample 3
# Target: Eukaryotic initiation factor 4A-I (EIF4A1, Homo sapiens, UniProt P60842, residues 1-406, full length assumed)
# Sequence of UniProt P60842 (whole entry, looked up): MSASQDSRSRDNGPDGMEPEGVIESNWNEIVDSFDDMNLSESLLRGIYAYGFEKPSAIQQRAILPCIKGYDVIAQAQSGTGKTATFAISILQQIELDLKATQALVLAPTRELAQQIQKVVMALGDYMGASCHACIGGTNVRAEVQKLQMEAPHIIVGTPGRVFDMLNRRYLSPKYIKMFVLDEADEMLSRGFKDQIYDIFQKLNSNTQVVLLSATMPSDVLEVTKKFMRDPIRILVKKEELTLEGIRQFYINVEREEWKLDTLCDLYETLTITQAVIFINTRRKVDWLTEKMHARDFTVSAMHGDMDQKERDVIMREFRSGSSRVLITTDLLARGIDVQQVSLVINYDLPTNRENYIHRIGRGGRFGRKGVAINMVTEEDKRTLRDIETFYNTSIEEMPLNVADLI
# Method: RNA Bind-n-Seq
# Molecule type: RNA
# Matrix: in vitro
# Concentration: 90 pmol
# Notes: 4-mer, random 30-nt RNA, single round
# Together with: 3 µM DMDA-PatA, 2 mM ADP, 2 mM phosphate
# Relative to: input library
# Direction: higher = stronger binding
Oligonucleotide,4-mer enrichment
UCCA,0.661 fold
GUUG,1.17 fold
GCAA,1 fold
ACAC,0.66 fold
GUUU,1.28 fold
CAGU,0.861 fold
GUCG,0.714 fold
UCUA,0.668 fold
GUAA,1.13 fold
CCCU,0.652 fold
UAAA,1.08 fold
UCCU,0.587 fold
ACCU,0.575 fold
CGGU,0.925 fold
GUGG,1.63 fold
UGCU,0.604 fold

# Sample 4
# Target: RNA binding protein fox-1 homolog 2, RRM domain, GST-SBP tag (RBFOX2, Homo sapiens, UniProt O43251-10, residues 100-194)
# Method: RNA Bind-n-Seq
# Molecule type: RNA
# Matrix: in vitro
# Concentration: 365 nM
# Notes: natural RNA segment, single round, ends assumed
# Relative to: no-protein control
# Direction: higher = stronger binding
# Constant ends, left off below: GGGAGUUCUACAGUCCGACGAUC … UGGAAUUCUCGGGUGCCAA
# Target sequence (chain): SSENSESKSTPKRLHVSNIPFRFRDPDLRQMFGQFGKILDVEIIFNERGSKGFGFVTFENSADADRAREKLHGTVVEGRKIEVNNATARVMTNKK
Oligonucleotide,RBNS enrichment (R)
CCCAUGGGACCACAGACCCAGCUCAGCUCUGUUGAAGACCAAGCACAAAGGCCUUGAAGAGUGGACAUUCCCAGGUCCCUGGCACCUUCCCUUGAGCCAGCUCCAUUGCU,0.324
AUCCCUUUGGGUACCAUUUUUAUUGUUUUAUGUAGAAUGUUAGAAAUUACCACUAAUUUACCUGGCAGUGAUGUCAAAUUGACUGUAAUUAGCAGGUAGAAAAUUAUUUG,0.38
GGACUUAUUAUGUGAGUGUUUUGCCUUUAAUCCUUGGGGUUCAACAAUAAAAGAGUCUGAAAAUUGGGAGAGAAAACCUACUCUAGGAGCCUCUGGUUACACAUAUUUUA,0.409
CUUUCGGGUCAUGUUUCUUGUCUUGUUCCCAGAUCUUUUCUUAAAAGAACAGUGUGACACCAGAAGCCAAGAGAUGGUUUUUACUAACAACAGCUUUGAUGAGUUCCUAU,0.166
ACAAUCCCCAUCAGGUAGCUGUCUAACCCCCAGCUGGGUCUAAUCCUUCUCAUUACCCACCCGACCUGGCUGCCCCUCACCUUGGGCUGGGGGACUGGGGGGCCAUUUCC,0.491
GAUAGUGUGGGUCUCCUGAAGGCCCUUGGCUGUUUGCAAAUGGACCUAAUGAUAUGAAGCCUUCUUUGUCUCUGACCUUUUUUCUCUGAGACCAGGAAUCUAGAUAAUAG,0.484
UCCUCACGACUCUUCAUCAACCAAGGAGCCUCCAGACAGAGAGGAGGAAGAAGGAAUUCACUAGGUUUUAACAAUGUUUCUCCUGCUCCUUUCUUCUCCCUAUCAGAGCU,0.222
GCCUGCGCUGACCUCCGAGUGCCCUUCCCGAGGGCAGUGCCAGGUGCAUGCUGCUUCCGACACUGGCGCUGAGAUCCCUCCCCGAGGGGCUCUGUCUCUGCCUUGACCUC,11.6
AAGUGUACCUGUGUACAUAACUCUGUAAAAACACUGAAAAAUUAUACUAACUUAUUUAUGUUAAAAGAUUUUUUUUAAUCUAGACAAUAUACAAGCCAAAGUGGCAUGUU,1.17
CUCUUGUUAUGAACUAUUAGAAACUUUAGGCAAAAUCAAAAGUAUUUGCGGCAAAAUAAAGGCCUAUUCUACUCUUAUUUAAAGUGAAACACUGUAUACUUGUUUCUCUC,0.372
GGGAGACGCAGAAAUUGUGGUAAAAUUCCUUAAUGUUUAAGGGAAAGUAACUUUAAGAGAUUUUUGGAAAAGCUUUAUAUACAUUCUUUUCAAAUUUCAGUACAAAUGAA,0.603
GAAGCCCAGCUACCUGCCUUCACUGAAAUAUACCUCAGGCUGAGACGGGCGGGACAGCAGGUCAGUGGAUCUUCACCGGAAGGUGCAGCUUCUCGGCAUCAGCGCAGCUG,0.297

# Sample 5
# Target: Histone acetyltransferase KAT6A, winged helix 1, GST fusion (KAT6A, Homo sapiens, UniProt Q92794, residues 1-85)
# Method: protein binding microarray
# Molecule type: double-stranded DNA, one strand shown
# Matrix: in vitro
# Concentration: not given
# Notes: 8-mer, flanks averaged, mean of 2 arrays, mostly near background
# Relative to: not given
# Direction: higher = stronger binding
# Target sequence (chain): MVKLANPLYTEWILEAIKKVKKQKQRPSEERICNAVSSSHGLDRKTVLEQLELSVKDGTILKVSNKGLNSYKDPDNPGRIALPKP
Oligonucleotide,E-score
AATACCCG,0.244
GGCAAATA,0.000225
ACACCACT,-0.175
GGCACGGA,0.197
CTGTATGC,-0.0816
AAATAATT,-0.045
AGGTCGAG,-0.119
GGGAGGCA,0.0615
AGGAGACC,-0.135
GGTCAGAC,-0.0211
CGAGTTAA,-0.0748
CGTAATCC,0.195
CATGCAGA,-0.147
CGGCTGGC,0.217
ACCAACTC,-0.296
GTTCAGAA,-0.0412
CGCGCTTC,0.413
CGATATAA,-0.0953
TGTGAAAA,-0.0903
GGCCTAAC,-0.1
CATTGGGG,-0.258
CAGAATAG,-0.101
AGAAGACA,-0.306
AGCACTTG,-0.149
AAAGGCCT,-0.0417

# Some of these lines once more (sample 1):
Oligonucleotide,fluorescence intensity
CTATACAAATTCCCTGATGCTAACTATTTGTTATTC,504 a.u.
GAACTTTACAATAGTCAGATCACGTTCTGTGGCTAG,2510 a.u.
GAATTGACAGCACATGTGATTTATAGTTCTCCTTAG,3080 a.u.
GAAACGTTAATGTCTCATGTGACTGAGCTGCAGTAG,1910 a.u.
GAAAAATGATTTCGACAGGTGACCTTTAAGTTCTAG,1710 a.u.
GAAAAGGTATTGGGCCATGACGTCAGATCCTGGTAG,504 a.u.
CTAACGCAAGCAAGAGGTGACACATAAACATAGTTC,508 a.u.
GAAAGGTTCTATCCCCATGTGCCTCGTCATCGGTAG,621 a.u.
GAATTTTCCAAAACAAGCGTGTCATGTGAGCTTTAG,3420 a.u.
GAACTACTTTCAGATGCGCTGATGGGCGTGCTTTAG,531 a.u.
GAACGAATAGTTCGTCAGGTGCCAGCACTGAGATAG,1620 a.u.
GAAGTTCTTTAACATGTGATGAGTTATATCTTGTAG,2870 a.u.
